Results gathered from unrelated publications.
A part holds a random share of what one study measured.

Sample 1
Target: Interferon regulatory factor 3, full length, phosphomimetic (IRF3, Homo sapiens, UniProt Q14653, residues 1-427, S386D/S396D/S398D/S402D/T404D/S405D)
Technique: protein-binding microarray
Form: double-stranded DNA, one strand shown
Matrix: in vitro
Tested at: 2540 nM top
Notes: 60-bp whole probe
Added: salmon DNA 0.4 mg/ml
Baseline: random background probes
Direction: higher = stronger binding
All sequences stand within: GCCTAGCAC … GTCTTGATTCGCTTGACGCTGCTG
Residues (chain): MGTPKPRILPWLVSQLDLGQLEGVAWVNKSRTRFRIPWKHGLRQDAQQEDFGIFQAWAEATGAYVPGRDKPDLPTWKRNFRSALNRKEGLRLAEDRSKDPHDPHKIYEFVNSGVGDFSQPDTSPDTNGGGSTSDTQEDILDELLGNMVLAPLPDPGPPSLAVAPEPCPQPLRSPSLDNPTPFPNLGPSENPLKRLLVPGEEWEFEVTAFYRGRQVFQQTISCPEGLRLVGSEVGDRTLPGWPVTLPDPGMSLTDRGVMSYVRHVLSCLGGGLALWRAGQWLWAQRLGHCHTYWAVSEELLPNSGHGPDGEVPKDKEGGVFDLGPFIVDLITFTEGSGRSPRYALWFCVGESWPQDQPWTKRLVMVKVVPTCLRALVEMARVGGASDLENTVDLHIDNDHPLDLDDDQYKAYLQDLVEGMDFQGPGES
Oligonucleotide	fitted relative affinity [z-score]
GACGGTCTCGGTATCAGGACGTGCTAG	1.72
AACGGTTTCCTTTTCCTGACGTGCTAG	11.1
TCAGTTTTGTTTTTCATACTGTGCTAG	5.03
ATAGGTATCGACTTTCGGTTAGTGCTA	2.15
TTAGGTATCTACTTTCGGTTAGTGCTA	2.41
GACGGTTCCGGTCTCGGGACGTGCTAG	3.5

Sample 2
Target: Histone acetyltransferase KAT6A, winged helix 2, GST fusion (KAT6A, Homo sapiens, UniProt Q92794, residues 85-181)
Technique: protein binding microarray
Form: double-stranded DNA, one strand shown
Matrix: in vitro
Tested at: not given
Notes: 8-mer, flanks averaged, mean of 2 arrays, mostly near background
Baseline: not given
Direction: higher = stronger binding
Residues (chain): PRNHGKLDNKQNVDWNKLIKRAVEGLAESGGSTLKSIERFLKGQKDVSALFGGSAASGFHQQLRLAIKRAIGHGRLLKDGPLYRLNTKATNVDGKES
Oligonucleotide	E-score
CTTATCTC	-0.0107
CTAGGCTA	-0.0778
TCGGACGA	0.0734
GGGATAAC	-0.0647
AGCATTAA	-0.0844

Sample 3
Target: Centromere-binding protein 1, full length, His-tagged (CBF1, Saccharomyces cerevisiae, UniProt P17106, residues 1-351)
UniProt P17106, sequence (whole entry, looked up): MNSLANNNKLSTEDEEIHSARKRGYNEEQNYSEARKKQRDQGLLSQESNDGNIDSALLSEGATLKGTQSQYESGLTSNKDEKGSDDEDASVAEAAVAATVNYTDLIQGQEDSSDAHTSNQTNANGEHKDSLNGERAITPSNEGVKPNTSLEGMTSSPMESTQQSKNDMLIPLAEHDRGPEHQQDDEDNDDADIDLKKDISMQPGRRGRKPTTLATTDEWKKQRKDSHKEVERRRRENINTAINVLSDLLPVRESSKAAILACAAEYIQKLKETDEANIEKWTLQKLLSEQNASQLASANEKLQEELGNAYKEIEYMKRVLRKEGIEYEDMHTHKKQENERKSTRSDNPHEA
Technique: competition protein-binding microarray
Form: double-stranded DNA, one strand shown
Matrix: in vitro
Tested at: 2 µM
Notes: whole 60-bp probe, lowest competitor level
Added: Pho4 competitor, 0.05 µM
Direction: higher = stronger binding
All sequences stand within: … GTCTTGATTCGCTTGACGCTGCTG
Oligonucleotide	fluorescence intensity [a.u.]
CTTCGTCTCTAACTAAACGTGCTAAAGTGTAAAACG	128
CAGAACAGGTTTGTATTCGTGATGGTGTCCCTGAAG	76.2
CGGGGTTAAGTTTGTCACAGCACTTGCTTGCAGCAG	58.7
GTCTTGTCTCATTTTCACGTGCCATTCCCCACTTCA	929
TTATTTGGTGTTTCTTTCGTGCCGATAGGTTTCGAA	61.6

Further values, each from its own experiment
Molecule	target	assay	test system	setting	how to read	measurement	result
PhoQ, residues 284 288 289 292 302 303 TAVSDG	PhoP, residues 12 14 15 18 19 TPWLV (Escherichia coli, UniProt P23836)	Sort-seq, item: YFP reporter	E. coli	PhoQ-PhoP variant library, added: 10 µM Mg2+	baseline: high Mg2+ state, higher = stronger signaling	fold induction	3.63

Some of these lines once more (further values, each from its own experiment):
Molecule	target	assay	test system	setting	how to read	measurement	result
PhoQ, residues 284 288 289 292 302 303 TAVSDG	PhoP, residues 12 14 15 18 19 TPWLV (Escherichia coli, UniProt P23836)	Sort-seq, item: YFP reporter	E. coli	PhoQ-PhoP variant library, added: 10 µM Mg2+	baseline: high Mg2+ state, higher = stronger signaling	fold induction	3.63
